Measurements of several laboratories.
Protocols differ between the studies behind these lines.
CDK2 with cyclin E1: Cyclin-dependent kinase 2, with cyclin E1 (CDK2, Homo sapiens, UniProt P24941)
CDK2 with cyclin A: Cyclin-dependent kinase 2, with cyclin A (CDK2, Homo sapiens, UniProt P24941)
CDK2 with cyclin E: Cyclin-dependent kinase 2, with cyclin E (CDK2, Homo sapiens, UniProt P24941)

SMILES | target | observed | mode | method | tested at | with | inhibition [%]
CN1CCN(Cc2ccc(-c3ccc(CO[C@H]4CCC[C@@H]4NC(=O)c4cc(-c5cnn(C)c5)cnc4N)cc3)cc2)CC1 | CDK2 with cyclin E1 | enzyme activity | inhibitor |  | 0.1 µM |  | -17
C=CC(=O)N1Cc2nc(-c3cc(-c4cc(Cl)cnc4Cl)c(F)cc3F)n(-c3ccncn3)c2C1 | Cyclin-dependent kinase 2, with cyclin O (CDK2, Homo sapiens, UniProt P24941) | cell-free assay | inhibitor |  | 1 µM |  | -7.1
CN1CC[C@@H](COc2cnc(C#N)cc2-c2ccn3nc(NC(=O)C4CC4)cc3c2)C1 | CDK2 with cyclin A | enzyme activity | inhibitor |  | 1 µM |  | 11
NC(=O)[C@@H](O)C[C@H]1CCc2sc3ncnc(O[C@H]4CC[C@H](N5CCOCC5)CC4)c3c21 | CDK2 with cyclin A | enzyme activity | inhibitor |  | 10 µM |  | 36
C=CC(=O)Nc1cccc(-c2cnc3[nH]cc(C(=O)NC(C)(C)C)c3n2)c1 | CDK2 with cyclin E | kinase activity |  |  | 0.1 µM |  | 21
COc1ccc(C(=O)/C=C/c2ccccc2-c2c[nH]c3ccc(C#N)cc23)c(O)c1 | CDK2 with cyclin E | enzyme activity | inhibitor |  | 20 µM |  | 13
CCn1cc(C(=O)O)c(=O)c2c(N)c(F)c(NC3CCCCC3)cc21 | CDK2 with cyclin E1 | kinase activity |  |  | 0.1 µM | ATP at Km | 20.1
C[C@H]1CN(C(=O)c2cn(-c3ccnc(N)n3)c3cc(C#CC4(O)CCCCC4)ccc23)CCN1 | CDK2 with cyclin A | enzyme activity | inhibitor | FRET | 1 µM |  | 2
Cc1cccc(O[C@H]2CCC[C@@H](C(C)CNCc3ccncc3)C2)c1 (relative stereo) | CDK2 with cyclin E | kinase activity |  | kinome panel screening | 10 µM |  | -4
NC(=O)C[C@H]1CCc2sc3ncnc(O[C@H]4CC[C@H](N5CCOCC5)CC4)c3c21 | Cyclin-dependent kinase 2, with cyclin A1 (CDK2, Homo sapiens, UniProt P24941) | enzyme activity | inhibitor |  | 10 µM |  | 35
